Measurements collected from several papers.
Every numbered part comes from another study and shows a few of its results, in no order. Positions count from the first letter of the parent shown.

Series 1 — method: DHFR PCA, deep sequencing; medium: yeast; together with: (+)-ABA 0 µM; baseline: wild-type fitted maximum; direction: higher = stronger binding
Target: ABI1, truncated, D143A, DHFR fusion (Arabidopsis thaliana)
Notes: methotrexate growth selection, single substitutions
Starting sequence: PYL1, truncated, DHFR fusion (Arabidopsis thaliana); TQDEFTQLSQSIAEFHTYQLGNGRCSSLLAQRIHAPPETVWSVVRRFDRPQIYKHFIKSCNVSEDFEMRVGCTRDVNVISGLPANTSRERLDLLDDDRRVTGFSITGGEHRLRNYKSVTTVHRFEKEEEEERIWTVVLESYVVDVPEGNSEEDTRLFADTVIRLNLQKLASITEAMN; partner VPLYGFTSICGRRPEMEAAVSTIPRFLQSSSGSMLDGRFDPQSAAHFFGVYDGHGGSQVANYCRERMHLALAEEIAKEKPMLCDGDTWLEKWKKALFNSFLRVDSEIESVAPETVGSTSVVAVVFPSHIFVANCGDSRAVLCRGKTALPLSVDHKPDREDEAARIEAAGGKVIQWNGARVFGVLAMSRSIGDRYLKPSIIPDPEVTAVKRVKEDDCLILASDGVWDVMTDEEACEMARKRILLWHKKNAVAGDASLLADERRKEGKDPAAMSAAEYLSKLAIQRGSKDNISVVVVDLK
`A30G`: “relative binding score” 6.81%.
`N22L` — result for “relative binding score”: 17.1%.
Under “relative binding score”, `I133H` is recorded as 20.8%.
For `E125T`, “relative binding score” read 30.3%.
`H34Q` — result for “relative binding score”: 37%.
`K116W`: “relative binding score” 0.225%.
`T101S`: “relative binding score” 0.0402%.
For `N77I`, “relative binding score” read 41.3%.
`F157D`: “relative binding score” 10.1%.
Under “relative binding score”, `S27V` is recorded as -0.574%.
Under “relative binding score”, `A170L` is recorded as -13.3%.
For `V44P`, “relative binding score” read 0.993%.
For `S42D`, “relative binding score” read 15%.
For `N61E`, “relative binding score” read 46.6%.

Series 2 — method: protein-binding microarray; form: double-stranded DNA, one strand shown; medium: in vitro; tested at: 250 nM; notes: 60-bp whole probe; together with: salmon DNA 0.4 mg/ml; baseline: random background probes; direction: higher = stronger binding; shared flanks, not repeated: GCCTAGCAC … GTCTTGATTCGCTTGACGCTGCTG
Target: Interferon regulatory factor 7, full length, phosphomimetic (IRF7, Homo sapiens, UniProt Q92985, residues 1-503, S101K/S471D/S472D/S475D/S476D/S477D/S483D/S484D/S487D)
Construct (chain): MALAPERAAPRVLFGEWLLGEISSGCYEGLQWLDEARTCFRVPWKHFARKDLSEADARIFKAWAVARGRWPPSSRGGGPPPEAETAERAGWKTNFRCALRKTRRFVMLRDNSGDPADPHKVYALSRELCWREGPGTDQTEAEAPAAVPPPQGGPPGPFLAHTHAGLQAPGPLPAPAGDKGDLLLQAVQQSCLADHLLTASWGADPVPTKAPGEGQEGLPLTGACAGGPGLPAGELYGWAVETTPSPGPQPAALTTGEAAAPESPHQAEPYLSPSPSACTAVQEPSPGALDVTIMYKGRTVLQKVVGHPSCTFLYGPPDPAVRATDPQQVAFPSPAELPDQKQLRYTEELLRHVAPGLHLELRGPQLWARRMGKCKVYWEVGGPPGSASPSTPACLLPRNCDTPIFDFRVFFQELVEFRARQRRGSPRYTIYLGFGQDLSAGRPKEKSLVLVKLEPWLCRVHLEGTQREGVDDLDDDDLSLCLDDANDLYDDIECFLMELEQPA
`GGAGCGCCAGGCCCCGGCAGGTGCTAG` gave a log fluorescence of -1.2 z-score.
`TTAGGTTTCCGACTGCTTTAGTGCTAG` gave a log fluorescence of 1.45 z-score.
The log fluorescence of `TAAGAACTGAGTATCGATTAGTGCTAG` is reported as 0.971 z-score.
With `GACGATTTCGGGACTGTAGACGTGCTA` the log fluorescence was 0.0694 z-score.
`TTATGACTGGACTTTCGGTTAGTGCTA` has a log fluorescence of 0.617 z-score.
For `TCAGAGCTCCTCCTTCTCACTGTGCTA`, the log fluorescence was -0.96 z-score.
The log fluorescence of `TCAGTTGTCCAGGCTGGTACTGTGCTA` is reported as 0.335 z-score.
With `TCACCCCTTGCTTTCCAACTGTGCTAG` the log fluorescence was 0.514 z-score.
The log fluorescence of `GACGGCATCCTTCTCCTGACGTGCTAG` is reported as -0.581 z-score.
For `GACGATTTCAGTATCGACACGTGCTAG`, the log fluorescence was 0.316 z-score.
With `TTAGCACTGGACTTTCGGTTAGTGCTA` the log fluorescence was 0.243 z-score.
`GACGGTATCGGTATCGGGCCGTGCTAG` gave a log fluorescence of 0.809 z-score.
`GGAAAAATGATGTTTTAGGTCGTGCTA` has a log fluorescence of -0.478 z-score.
With `GAAGATTTCAGTTCCGAGACGTGCTAG` the log fluorescence was 0.688 z-score.
The log fluorescence of `GAAGATTTCAGTATCGAGACGTGCTAG` is reported as 0.31 z-score.
For `GCCGATTTCAGACTGGAGACGTGCTAG`, the log fluorescence was 0.533 z-score.
With `GACGGTCTCGGTATCGGGTCGTGCTAG` the log fluorescence was 2.72 z-score.
With `GACGGTTCCCTTGTCCTGACGTGCTAG` the log fluorescence was 0.264 z-score.
With `TTAGGTAACCTTCTCCTTTAGTGCTAG` the log fluorescence was 0.0321 z-score.

Series 3 — target: CCNA1, cyclin fold, Cln2 fusion (human); method: yeast growth competition, sequencing; medium: yeast; notes: weak parent motif; baseline: not given; direction: higher = stronger binding
Starting sequence: RB1 docking peptide (human); PKPLKKLRFDIEG
For `L7H`, “normalised enrichment score” read 0.287.
`E12F`: “normalised enrichment score” 0.136.
`P3Q`: “normalised enrichment score” 0.17.
Under “normalised enrichment score”, `K6S` is recorded as 0.415.
Under “normalised enrichment score”, `P1L` is recorded as 0.00604.
`E12R`: “normalised enrichment score” -0.0671.
For `I11T`, “normalised enrichment score” read -0.175.
`L7P` — result for “normalised enrichment score”: 0.162.
`G13V` — result for “normalised enrichment score”: 0.139.
Under “normalised enrichment score”, `L4Y` is recorded as 0.569.
`L7F` — result for “normalised enrichment score”: 0.35.
Under “normalised enrichment score”, `F9N` is recorded as 0.884.
Under “normalised enrichment score”, `D10C` is recorded as 0.0889.
Under “normalised enrichment score”, `I11G` is recorded as 0.262.
`P3Y` — result for “normalised enrichment score”: 0.38.
For `F9C`, “normalised enrichment score” read 0.369.
`K2T` — result for “normalised enrichment score”: -0.121.
For `L4A`, “normalised enrichment score” read 0.393.
For `L4E`, “normalised enrichment score” read 0.429.
For `R8S`, “normalised enrichment score” read 0.307.
`P1K`: “normalised enrichment score” 0.173.
`P1R` — result for “normalised enrichment score”: 0.307.
For `K6N`, “normalised enrichment score” read 0.306.
`K6M`: “normalised enrichment score” 0.203.
Under “normalised enrichment score”, `D10N` is recorded as 0.402.

Series 4 — method: protein-binding microarray; form: double-stranded DNA, one strand shown; medium: in vitro; tested at: not given; direction: higher = stronger binding
Target: Protein C-ets-1 (ETS1, Homo sapiens, UniProt P14921, residues 1-441, Y397A, full length assumed)
Notes: k-mer, scored over probes, only values ≥0.25
Target sequence (chain): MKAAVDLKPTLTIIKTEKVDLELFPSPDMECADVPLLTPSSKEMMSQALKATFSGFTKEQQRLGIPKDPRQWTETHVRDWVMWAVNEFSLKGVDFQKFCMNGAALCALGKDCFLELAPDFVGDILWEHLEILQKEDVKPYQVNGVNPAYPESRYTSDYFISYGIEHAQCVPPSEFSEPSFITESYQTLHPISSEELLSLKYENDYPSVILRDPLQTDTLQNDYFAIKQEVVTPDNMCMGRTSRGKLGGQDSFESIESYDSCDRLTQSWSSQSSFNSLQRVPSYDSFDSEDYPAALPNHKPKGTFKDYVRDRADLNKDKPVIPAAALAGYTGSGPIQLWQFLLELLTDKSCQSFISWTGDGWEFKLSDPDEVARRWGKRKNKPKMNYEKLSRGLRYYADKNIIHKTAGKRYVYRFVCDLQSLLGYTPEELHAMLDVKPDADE
The E-score of `ATGCCACA` is reported as 0.253.
`ACGTTTTG` has an E-score of 0.257.
`CGGATATC` has an E-score of 0.33.
`AGGGGCGG` gave an E-score of 0.413.
The E-score of `CATTGCAG` is reported as 0.273.
For `CGGGGCGA`, the E-score was 0.257.
`GCCGACAC` has an E-score of 0.253.
`GGTTTGCA` gave an E-score of 0.294.
`CAACAAAC` has an E-score of 0.252.
For `ATTTTGGC`, the E-score was 0.267.
For `GTATGTCA`, the E-score was 0.306.
`GGGCGCCA` gave an E-score of 0.251.
For `CACATCCG`, the E-score was 0.455.
For `AGTGACAC`, the E-score was 0.269.
With `ATCCCCGC` the E-score was 0.27.
`GGAAACAC` has an E-score of 0.319.

Series 5 — target: XBP1, bZIP domain (human); method: DHFR protein complementation; medium: yeast; baseline: wild-type JUN-FOS pair; direction: higher = stronger binding
Notes: single substitutions, most at no-binding floor
Starting sequence: JUN, bZIP domain (human); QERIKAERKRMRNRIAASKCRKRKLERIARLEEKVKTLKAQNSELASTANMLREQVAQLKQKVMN; partner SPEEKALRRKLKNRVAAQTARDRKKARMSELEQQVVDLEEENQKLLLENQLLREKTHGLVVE
`E33F` has a binding fitness of -1.29 natural log.
`Q55Y` has a binding fitness of -0.909 natural log.
The binding fitness of `R30T` is reported as -0.478 natural log.
`A40P` has a binding fitness of -1.53 natural log.
`L45F` gave a binding fitness of -1.52 natural log.
The binding fitness of `R30V` is reported as -0.253 natural log.
With `K36Q` the binding fitness was -0.754 natural log.
With `Q41G` the binding fitness was -1.36 natural log.
For `S43M`, the binding fitness was -0.554 natural log.
`M51Y` gave a binding fitness of -0.623 natural log.
`E33G` gave a binding fitness of -1.39 natural log.
With `L38K` the binding fitness was -1.49 natural log.
The binding fitness of `A49C` is reported as -0.841 natural log.
With `S47H` the binding fitness was -0.514 natural log.
The binding fitness of `T48E` is reported as -0.456 natural log.
With `T37R` the binding fitness was -0.712 natural log.

Some of these lines once more (series 2):
`GGAGCGCCAGGCCCCGGCAGGTGCTAG` gave a log fluorescence of -1.2 z-score.
`TTAGGTTTCCGACTGCTTTAGTGCTAG` gave a log fluorescence of 1.45 z-score.
The log fluorescence of `TAAGAACTGAGTATCGATTAGTGCTAG` is reported as 0.971 z-score.
With `GACGATTTCGGGACTGTAGACGTGCTA` the log fluorescence was 0.0694 z-score.
`TTATGACTGGACTTTCGGTTAGTGCTA` has a log fluorescence of 0.617 z-score.
For `TCAGAGCTCCTCCTTCTCACTGTGCTA`, the log fluorescence was -0.96 z-score.
The log fluorescence of `TCAGTTGTCCAGGCTGGTACTGTGCTA` is reported as 0.335 z-score.
With `TCACCCCTTGCTTTCCAACTGTGCTAG` the log fluorescence was 0.514 z-score.
The log fluorescence of `GACGGCATCCTTCTCCTGACGTGCTAG` is reported as -0.581 z-score.
For `GACGATTTCAGTATCGACACGTGCTAG`, the log fluorescence was 0.316 z-score.
With `TTAGCACTGGACTTTCGGTTAGTGCTA` the log fluorescence was 0.243 z-score.
`GACGGTATCGGTATCGGGCCGTGCTAG` gave a log fluorescence of 0.809 z-score.
`GGAAAAATGATGTTTTAGGTCGTGCTA` has a log fluorescence of -0.478 z-score.
With `GAAGATTTCAGTTCCGAGACGTGCTAG` the log fluorescence was 0.688 z-score.
The log fluorescence of `GAAGATTTCAGTATCGAGACGTGCTAG` is reported as 0.31 z-score.
